Results collected from several papers.
Lines come from different studies, so protocols differ. ± marks the error that the study gave.

CN1CC[C@]23c4c5ccc(O)c4O[C@H]2[C@@H](O[C@@H]2O[C@H](C(=O)O)[C@@H](O)[C@H](O)[C@H]2O)C=C[C@H]3[C@H]1C5  AUC(0-t) (LC-MS/MS; male Sprague-Dawley rat, whole blood; intraperitoneal, 10 mg/kg of heroin, up to 180 min): 10.2 ± 2.67 ng·h/mL
CC(=O)c1c(C)c2cnc(Nc3ccc(C4CCN(CCS(C)(=O)=O)CC4)cn3)nc2n(C2CCCC2)c1=O  AUC(0-t) (Sprague-Dawley rat, male; oral, 60 mg/kg, day 28, repeated dosing 4 weeks): 34800 ng·h/mL
Cc1ccc(S(=O)(=O)Nc2c(N[C@H]3CC[C@H](NC(=O)Nc4ccc(F)c(Cl)c4)CC3)c(=O)c2=O)cc1  AUC(0-t) (rat, plasma; oral, 20 mg/kg): 0.23 µM·h
COC(=O)[C@@H]1[C@H]2CC[C@@H](C[C@@H]1O)N2C  AUC(0-t) (LC-MS/MS; Sprague-Dawley rat, whole blood; intraperitoneal, 20 mg/kg of cocaine, up to 180 min): 283 ± 14.3 ng·h/mL
C#Cc1ccc2c(c1)C(c1ccccn1)=NCc1c(-c3cnco3)ncn1-2  AUC(0-t) (Sprague Dawley rat, brain; oral, 2 mg/kg, 0 to 24 h, cassette dosing): 2340 ng·h/mL
C=CC[N+]1([C@H]2C[C@H]3[C@@H]4CC[C@H]5C[C@H](O)[C@@H](N6CCOCC6)C[C@]5(C)[C@H]4CC[C@]3(C)[C@H]2OC(C)=O)CCCC1  AUC(0-t) (Sprague Dawley rat, plasma; intravenous, dose not given, together with: sugammadex 5 mg/kg ODD): 32.9 ng·h/mL
CC(C)[C@@H](CN1CC[C@@](C)(c2cccc(O)c2)[C@@H](C)C1)NC(=O)[C@@H]1Cc2ccc(O)cc2CN1C  AUC(0-t) (rat, brain; ip, 5 mg/kg, to 168 h): 325 ng·h/g
CN1CC[C@]23c4c5ccc(O[C@@H]6O[C@H](C(=O)O)[C@@H](O)[C@H](O)[C@H]6O)c4O[C@H]2[C@@H](O)C=C[C@H]3[C@H]1C5  AUC(0-t) (Sprague-Dawley rat, whole blood; intraperitoneal, 10 mg/kg heroin, up to 180 min, single heroin dose alone): 3450 ± 330 ng·h/mL
Cc1cc(C)nc(Nc2ncc(C(=O)NCCc3c(C)[nH]c4ccccc34)cn2)c1  AUC(0-t) (female rat, plasma; oral, 500 mg/kg/day, day 7): 36900 ng·h/mL
COc1ccc2c(c[n+](C)c3c4cc5c(cc4ccc23)OCO5)c1OC  AUC(0-t) (LC-MS/MS; rat, plasma; dose not given): 60100 ng·h/mL
CCC[C@@](N)(CO)CCc1ccc(OCCCCCC(C)C)cc1  AUC(0-t) (male Sprague-Dawley rat, plasma; oral, 100 mg/kg): 16.8 µM·h

Repeated from above:
CN1CC[C@]23c4c5ccc(O[C@@H]6O[C@H](C(=O)O)[C@@H](O)[C@H](O)[C@H]6O)c4O[C@H]2[C@@H](O)C=C[C@H]3[C@H]1C5  AUC(0-t) (Sprague-Dawley rat, whole blood; intraperitoneal, 10 mg/kg heroin, up to 180 min, single heroin dose alone): 3450 ± 330 ng·h/mL
